# Published values from different studies.
# Parts stem from different laboratories: compare values within a part only. Substitutions count along the parent as printed.

# Sample 1 — technique: DHFR PCA, deep sequencing; sample: yeast; with: (+)-ABA 0 µM; baseline: wild-type fitted maximum; direction: higher = stronger binding
# Target: ABI1, truncated, D143A, DHFR fusion (Arabidopsis thaliana)
# Setting: methotrexate growth selection, single substitutions
# Parent: PYL1, truncated, DHFR fusion (Arabidopsis thaliana); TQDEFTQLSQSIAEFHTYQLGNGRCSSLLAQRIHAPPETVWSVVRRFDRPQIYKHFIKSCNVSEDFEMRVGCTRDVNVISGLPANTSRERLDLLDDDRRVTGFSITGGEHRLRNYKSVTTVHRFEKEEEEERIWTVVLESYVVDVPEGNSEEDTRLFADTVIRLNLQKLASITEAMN; partner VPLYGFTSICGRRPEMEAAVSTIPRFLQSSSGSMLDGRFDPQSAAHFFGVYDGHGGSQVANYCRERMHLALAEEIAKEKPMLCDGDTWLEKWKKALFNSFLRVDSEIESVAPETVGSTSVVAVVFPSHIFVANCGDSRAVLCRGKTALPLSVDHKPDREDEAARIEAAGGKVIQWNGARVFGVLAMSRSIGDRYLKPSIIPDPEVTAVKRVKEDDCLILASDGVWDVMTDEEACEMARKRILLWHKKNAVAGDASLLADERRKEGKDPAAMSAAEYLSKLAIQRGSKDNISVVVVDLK
Variant,relative binding score [%]
E67K,18.7
C25H,-6.22
V40E,-6.32
C60N,0.849
L28R,1.2
P146S,5.82
A170F,-55.8
R45Y,-8.89
H122V,-3.43
R163G,9.7
F103G,-3.18
P83R,16.7
R49C,21.9
P146R,3.08
R46C,2.54
Q2N,24.1
V70Y,3.52
F15A,7.47
R69V,36.5
T1W,18.8
T6L,34.4
V78T,23.1
D48Y,-2.65

# Sample 2 — target: DDIT3, bZIP domain (human); technique: DHFR protein complementation; sample: yeast; baseline: wild-type JUN-FOS pair; direction: higher = stronger binding
# Setting: single substitutions, most at no-binding floor
# Parent: JUN, bZIP domain (human); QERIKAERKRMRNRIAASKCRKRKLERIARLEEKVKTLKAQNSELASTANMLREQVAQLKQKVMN; partner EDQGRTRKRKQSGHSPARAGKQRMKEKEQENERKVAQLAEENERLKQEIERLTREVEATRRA
Variant,binding fitness
N42I,-1.03 natural log
L38Q,-1.29 natural log
M51L,0.0608 natural log
K34P,-1.07 natural log
T37A,0.135 natural log
T37N,0.0965 natural log
K39N,-0.217 natural log
V56E,-0.671 natural log
L52F,-1.09 natural log
N42L,-1.06 natural log
A40F,-0.116 natural log
A57Q,-0.0286 natural log
A57R,-0.0327 natural log
R53G,-0.776 natural log
K39D,-0.371 natural log
A46P,-1.18 natural log
V35M,0.07 natural log

# Sample 3 — target: CCNB2, cyclin fold, Cln2 fusion (human); technique: yeast growth competition, sequencing; sample: yeast; setting: weak parent motif; baseline: not given; direction: higher = stronger binding
# Parent: SLBP docking peptide (human); ARYKRKLLINDFG; partner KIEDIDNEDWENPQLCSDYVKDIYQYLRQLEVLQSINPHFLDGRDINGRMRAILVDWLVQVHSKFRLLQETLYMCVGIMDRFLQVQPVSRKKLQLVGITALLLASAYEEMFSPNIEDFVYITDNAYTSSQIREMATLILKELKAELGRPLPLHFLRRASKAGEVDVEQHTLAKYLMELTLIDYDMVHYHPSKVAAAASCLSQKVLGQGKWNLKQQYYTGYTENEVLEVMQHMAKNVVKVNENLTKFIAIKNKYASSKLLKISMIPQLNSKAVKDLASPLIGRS
Variant,normalised enrichment score
ARYKRKRLINDFG [L7R],0.502
ARYKSKLLINDFG [R5S],0.842
ARYKRKLLINDFF [G13F],0.618
ARYKRKLNINDFG [L8N],0.757
ARVKRKLLINDFG [Y3V],0.455
ERYKRKLLINDFG [A1E],-0.03
ARYKNKLLINDFG [R5N],0.732
ARYKRKLGINDFG [L8G],0.725
ARYKRKELINDFG [L7E],0.605
ARYKRKLLINDIG [F12I],0.505
AAYKRKLLINDFG [R2A],-0.115
ARYKRWLLINDFG [K6W],0.613
ARYKRKLLKNDFG [I9K],0.993
AWYKRKLLINDFG [R2W],0.326
ARYDRKLLINDFG [K4D],0.0711
ARYKHKLLINDFG [R5H],0.241
ARYKRKNLINDFG [L7N],0.96
AIYKRKLLINDFG [R2I],0.656
ARYKRKLLIRDFG [N10R],0.0402
ARYKRCLLINDFG [K6C],0.952
AMYKRKLLINDFG [R2M],0.574
ARYKRKLLIADFG [N10A],0.488

# Sample 4 — technique: RNA Bind-n-Seq; form: RNA; sample: in vitro; tested at: 200 nM; setting: whole 134-nt RNA, ends assumed; with: 150 mM LiCl; baseline: input library; direction: higher = stronger binding; each molecule: 7-deaza-guanosine replaces G
# Target: Ras GTPase-activating protein-binding protein 1, full length (G3BP1, Homo sapiens, UniProt Q13283)
# Chain of UniProt Q13283 (whole entry, looked up): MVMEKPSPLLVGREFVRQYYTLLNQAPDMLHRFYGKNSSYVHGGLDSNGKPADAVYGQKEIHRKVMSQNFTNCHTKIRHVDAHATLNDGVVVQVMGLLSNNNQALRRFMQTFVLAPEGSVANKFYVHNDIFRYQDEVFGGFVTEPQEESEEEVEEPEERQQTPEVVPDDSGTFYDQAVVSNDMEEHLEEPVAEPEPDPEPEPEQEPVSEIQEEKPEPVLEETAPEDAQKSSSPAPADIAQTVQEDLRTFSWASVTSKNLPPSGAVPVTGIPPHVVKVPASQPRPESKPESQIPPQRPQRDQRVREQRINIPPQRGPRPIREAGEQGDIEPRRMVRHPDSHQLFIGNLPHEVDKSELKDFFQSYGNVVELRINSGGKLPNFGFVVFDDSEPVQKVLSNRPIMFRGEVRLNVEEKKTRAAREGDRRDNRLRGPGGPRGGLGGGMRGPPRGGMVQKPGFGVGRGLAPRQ
# Constant ends, left off below: GGGAGUUCUACAGUCCGACGAUC … UGGAAUUCUCGGGUGUCAAGG
Sequence,log2 enrichment
UCAAGUCCUGUGCUACACAUCGUAUGUACCGAAUCGGAAAGGUUUUUGGAAAGGAAAGUAUUAUGUUACGCCGUUCGGAUCUGCACUUCC,-0.311
AGUCCUGUGCUACACAUCGUAUGUACCGAAUCGGGCCCCGGCCCCGGGGCCCCGGGGAAAGUAUUAUGUUACGCCGUUCGGAUCUGCACU,-2.48
CUCAAGUCCUGUGCUACACAUCGUAUGUACCGAAUCGGGGAGGGGAGGGAGGGAAAGUAUUAUGUUACGCCGUUCGGAUCUGCACUUCCA,-0.135
GUCCUGUGCUACACAUCGUAUGUACCGAAUCAAACCCCCAAAUUUUUAAACCCCCAAAAAAGUAUUAUGUUACGCCGUUCGGAUCUGCAC,1.31
CUCAAGUCCUGUGCUACACAUCGUAUGUACCGAAUCGGUUUUUGGAAAGGAGGAAAGUAUUAUGUUACGCCGUUCGGAUCUGCACUUCCA,-0.397
CCUGUGCUACACAUCGUAUGUACCGAAUCGGGGCCCCCCCGGCCCCCCCGGGCCCCCCCGGAAAGUAUUAUGUUACGCCGUUCGGAUCUG,1.2
AAGUCCUGUGCUACACAUCGUAUGUACCGAAUCGGGGUUUGGGGUUUGGGGUUUGGGAAAGUAUUAUGUUACGCCGUUCGGAUCUGCACU,-0.357
CCUGUGCUACACAUCGUAUGUACCGAAUCGGCCCCCCGGGGCCCCCCGGGCCCCCCGGGGAAAGUAUUAUGUUACGCCGUUCGGAUCUGC,-2.6

# Sample 5 — technique: protein binding microarray; form: double-stranded DNA, one strand shown; sample: in vitro; tested at: not given; baseline: not given; direction: higher = stronger binding
# Target: Histone acetyltransferase KAT6A, both winged helices, GST fusion (KAT6A, Homo sapiens, UniProt Q92794, residues 1-181)
# Setting: 8-mer, flanks averaged, mean of 2 arrays, mostly near background
# Construct (chain): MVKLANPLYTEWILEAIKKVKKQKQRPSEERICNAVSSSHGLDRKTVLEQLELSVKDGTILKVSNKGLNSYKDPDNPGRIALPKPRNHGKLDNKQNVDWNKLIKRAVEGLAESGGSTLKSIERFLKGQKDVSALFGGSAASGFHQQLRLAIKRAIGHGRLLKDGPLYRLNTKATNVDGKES
Sequence,E-score
ATGCCAAT,-0.136
CTTAGACA,-0.144
GACACCGC,0.249
AATGGGAT,-0.0785
CCTAGATC,-0.109
GTGTCCAA,-0.125
CCATAAGG,-0.0744
CTAGTCCC,-0.136
AGTTACTA,-0.133
CGATCGAA,0.0446
CTCTCACA,-0.0574
CGCATATA,0.145
CAAGCTAA,-0.243
CAGAAATA,-0.146
ACCAGGAC,-0.0388
CCAGCCCC,-0.128
CGCGATAC,0.278

# A few entries again (sample 2):
Variant,binding fitness
L52F,-1.09 natural log
V56E,-0.671 natural log
R53G,-0.776 natural log
K39D,-0.371 natural log
V35M,0.07 natural log
T37N,0.0965 natural log
K34P,-1.07 natural log
T37A,0.135 natural log
N42L,-1.06 natural log
A40F,-0.116 natural log
N42I,-1.03 natural log
A57Q,-0.0286 natural log
